# Measured values collected from several papers.
# Protocols differ between the studies behind these lines. ± marks the error that the study gave.
# Organism: Plasmodium falciparum
SMILES,assay,system,setting,IC50
Cc1ccc2c(c1C)NC(=O)[C@]21NN=C(c2ccccc2)S1,"parasite growth, inhibitor, SYBR Green I",3D7,,700 nM
O=C(CC1NCCCC1O)Cn1cnc2cc(Br)c(Cl)cc2c1=O (centres unmarked),parasite growth,cPRS conditional knockdown line,"72 h, added: 12.5 nM anhydrotetracycline",0.07 nM
CCC1=C(CC)/C(=C/NC23CC4CC(CC(C4)C2)C3)N=C1c1cc2ccccc2[nH]1,"parasite growth, SYBR Green fluorescence","Dd2, multidrug-resistant",72 h,59.3 nM
COc1nc2ccc(Br)cc2cc1[C@@H](c1ccccc1)[C@@](O)(CCN(C)C)c1cccc2ccccc12,"parasite growth, inhibitor, SYBR Green I",3D7,,1220 nM
C[C@H]1[C@@H](O)O[C@@H]2O[C@@]3(C)CC[C@H]4[C@H](C)CC[C@@H]1[C@@]24OO3,,"3D7, supernatant of treated uninfected erythrocytes","72 h, 500 nM preincubated 0.16 h",6.7 ± 2.5 nM
O=C1C(O)=C([C@H]2CC[C@H](c3ccc(Cl)cc3)CC2)C(=O)c2ccccc21,"parasite growth, SYBR Green fluorescence","Dd2 (multidrug-resistant), asexual blood stage",72 h,0.527 nM
CC1=C(Cc2cn(CCN3CCC(=O)CC3)nn2)C(=O)c2ccccc2C1=O,"parasite growth, [3H]hypoxanthine incorporation",NF54,72 h,2070 nM
CC(C)Cn1c(=O)n(C)c(=O)c2c(-c3cncn3C)n(Cc3cccc4ccccc34)nc21,"parasite growth, inhibitor, SYBR Green I",3D7,,3110 nM
CC1CCc2c([nH]c3ccccc23)C2(N1)C(=O)Nc1ccc(Cl)cc12 (centres unmarked),"parasite growth, [3H]hypoxanthine incorporation",NF54,,291 nM
COC1=CC(c2ccc[nH]2)=N/C1=C\c1[nH]c(-c2ccc(OC)cc2)cc1-c1ccc(OC)cc1,"parasite growth, SYBR Green fluorescence","Tm90-C2B (atovaquone-resistant), asexual blood stage",72 h,36.9 nM
C[C@@H](c1cc(Cl)cc(Cl)c1)N(C)c1ncc2c(N)nc(N)nc2n1,"parasite growth, inhibitor, SYBR Green I",3D7,,3960 nM
CCC1=C(CC)/C(=C/c2cc(Cc3ccc(Cl)cc3)c(C)[nH]2)N=C1c1ccc[nH]1,"parasite growth, SYBR Green fluorescence","Tm90-C2B (atovaquone-resistant), asexual blood stage",72 h,253 nM
O[C@H](CN[C@H](COCC1CC1)Cc1ccccc1)c1cc(Cl)cc2c1-c1ccc(Cl)cc1C2,,3D7,48 h,11.2 ± 1.5 nM
CCc1nc(N)nc(N)c1-c1ccc(Cl)cc1,cell growth,"erythrocytes, HB3",low-folate medium,1060 ± 650 nM
COC1=C(OC)/C(=C/c2[nH]c(Cc3ccc(Cl)cc3)cc2Cc2ccc(Cl)cc2)N=C1c1ccc[nH]1,"parasite growth, SYBR Green fluorescence","Tm90-C2B (atovaquone-resistant), asexual blood stage",72 h,> 2500 nM
CC1(C)N=C(N)N=C(N)N1c1ccc(Cl)cc1,growth,3D7,48 h,38 ± 10 nM
COc1cc(CO)c(-c2ccc3c(c2O)[C@@H](C)N[C@H](C)C3)c2cccc(O)c12,"asexual parasite proliferation, SYBR Green I fluorescence","clinical isolate SB_05, Mozambique",,9.8 ± 0.3 nM
CCCCNC[C@H](O)c1cc(Cl)cc2c1-c1ccc(Cl)cc1C2,,3D7,48 h,23.6 ± 2.4 nM
COc1ccc(C[C@H](NC(=O)[C@H](C)NC(=O)CN2CCOCC2)C(=O)N[C@@H](Cc2ccccc2)C(=O)C2(C)CO2)cc1 (stereo in doubt),parasite growth,"Cam WT, artemisinin-sensitive","72 h, ring stage",44.6 ± 5.9 nM
"COc1cc(C)c(-c2ccc(O)c3c2C[C@@H](C)N[C@@H]3C)c2cccc(O)c12 (single isomer, unassigned)","asexual parasite proliferation, SYBR Green I fluorescence",K1,,43.6 ± 8.9 nM
CC1=C(C)/C(=C/c2cc(-c3ccc(Cl)cc3)c(C)[nH]2)N=C1c1ccc[nH]1,"parasite growth, SYBR Green fluorescence","Tm90-C2B (atovaquone-resistant), asexual blood stage",72 h,2330 nM
NCCN(C(=O)c1ccc(Cl)cc1Cl)c1ccc(OCc2ccc(Cl)cc2)cc1,"parasite growth, inhibitor, SYBR Green I",3D7,,1560 nM
CCN(CC)CCCC(C)Nc1ccnc2cc(Cl)ccc12 (centres unmarked),"parasite growth, LDH",3D7,,22 nM
CCN(CC)CCCC(C)Nc1ccnc2cc(Cl)ccc12 (centres unmarked),"asexual parasite growth, SYBR Green I","clinical isolate SB_04, Malawi",,5.9 ± 0.49 nM
CC1=C(C)/C(=C/c2cc(-c3ccc(OC(F)(F)F)cc3)c(C)[nH]2)N=C1c1ccc[nH]1,"parasite growth, SYBR Green fluorescence","Tm90-C2B (atovaquone-resistant), asexual blood stage",72 h,1810 nM
CCCCCCCNC[C@@H](O)c1cc(Cl)cc2c1-c1ccc(Cl)cc1C2,,3D7,48 h,1.5 ± 0.3 nM
COC1=C(OC)/C(=C/c2cc(-c3ccc(OC(F)(F)F)cc3)c(C)[nH]2)N=C1c1ccc[nH]1,"parasite growth, SYBR Green fluorescence","Tm90-C2B (atovaquone-resistant), asexual blood stage",72 h,427 nM
CC1=C(Cc2cn(CCN3CCN(C(=O)OC(C)(C)C)CC3)nn2)C(=O)c2ccccc2C1=O,"parasite growth, [3H]hypoxanthine incorporation",NF54,72 h,465 nM
Nc1ccc(S(=O)(=O)c2ccc(N)cc2)cc1,cell growth,"erythrocytes, Dd2",low-folate medium,65200 ± 6070 nM
CC1=C(Cn2cc(CBr)nn2)C(=O)c2ccccc2C1=O,"parasite growth, [3H]hypoxanthine incorporation",NF54,72 h,5550 nM
CCCCCNC[C@H](O)c1cc(Cl)cc2c1-c1ccc(Cl)cc1C2,,3D7,48 h,3.3 ± 0.4 nM
CC1=C(Cn2cc([Si](C)(C)C)nn2)C(=O)c2ccccc2C1=O,"parasite growth, [3H]hypoxanthine incorporation",NF54,72 h,7200 nM
CC1=C(C)/C(=C/c2[nH]c(Cc3ccc(Cl)cc3)cc2Cc2ccc(Cl)cc2)N=C1c1ccc[nH]1,"parasite growth, SYBR Green fluorescence","Dd2 (multidrug-resistant), asexual blood stage",72 h,> 2500 nM
N=C(N)NCCCCC(=O)Nc1cc(C(F)(F)F)cc(NC(=O)c2cc(C(=O)Nc3cc(C(F)(F)F)cc(NC(=O)CCCCNC(=N)N)c3O[C@@H]3CCNC3)ncn2)c1O[C@@H]1CCNC1,"parasite growth, inhibitor, SYBR Green I",3D7,,453 nM
N=C(CC(O)c1nc2ccccc2c2ccc(Br)cc12)Nc1ccc(F)cc1 (centres unmarked),"parasite growth, HRP2-ELISA",clinical isolates from Gabon,"ex vivo, median",46 nM
CC1=C(Cn2cc(CN3CCOCC3)nn2)C(=O)c2ccccc2C1=O,"parasite growth, [3H]hypoxanthine incorporation",NF54,72 h,> 10000 nM
O[C@@H](CNCCN1CCN(C(c2ccccc2)c2ccccc2)CC1)c1cc(Cl)cc2c1-c1ccc(Cl)cc1C2,,3D7,48 h,14.2 ± 1.6 nM
COc1ncnc(NS(=O)(=O)c2ccc(N)cc2)c1OC,cell growth,"erythrocytes, K1",low-folate medium,494000 ± 47000 nM
N=C(CC(O)c1ccnc2c1ccc1ccccc12)Nc1ccc(F)cc1 (centres unmarked),"parasite growth, HRP2 ELISA","3D7, asexual blood stages",3 days,207 ± 66.4 nM
COc1cccc(N2CCN(C3=Nc4c(F)cccc4[C@H](CC(=O)O)N3c3cc(C(F)(F)F)ccc3OC)CC2)c1,"parasite growth, inhibitor, SYBR Green I",3D7,,10800 nM
O[C@@H](CN1CCN(C(c2ccccc2)c2ccccc2)CC1)c1cc(Cl)cc2c1-c1ccc(Cl)cc1C2,,3D7,48 h,32.4 ± 10.1 nM
Cc1onc(-c2ccccc2)c1-c1ccc(S(N)(=O)=O)cc1,"parasite growth, inhibitor, SYBR Green I",3D7,,64000 nM
C[C@@H](O)C(=O)CCCCCCC(=O)Nc1ccccc1,[3H]-hypoxanthine incorporation,,,37900 nM
CCN(CC)CCCC(C)Nc1ccnc2cc(Cl)ccc12 (centres unmarked),growth,3D7,"96 h, added: 200 µM IPP",3 ± 2 nM
CCN(CC)CCCC(C)Nc1ccnc2cc(Cl)ccc12 (centres unmarked),"parasite growth, SYBR Green I",3D7,,65.38 ± 0.01 nM
CC1=C(Cc2cn(CC#N)nn2)C(=O)c2ccccc2C1=O,"parasite growth, [3H]hypoxanthine incorporation",NF54,72 h,1890 nM
CCCCCCNC[C@@H](O)c1cc(Cl)cc2c1-c1ccc(Cl)cc1C2,,3D7,48 h,2.2 ± 0.2 nM

# For quick reference, copied from above:
SMILES,assay,system,setting,IC50
CCC1=C(CC)/C(=C/c2cc(Cc3ccc(Cl)cc3)c(C)[nH]2)N=C1c1ccc[nH]1,"parasite growth, SYBR Green fluorescence","Tm90-C2B (atovaquone-resistant), asexual blood stage",72 h,253 nM
CCCCCCCNC[C@@H](O)c1cc(Cl)cc2c1-c1ccc(Cl)cc1C2,,3D7,48 h,1.5 ± 0.3 nM
CC1=C(Cn2cc([Si](C)(C)C)nn2)C(=O)c2ccccc2C1=O,"parasite growth, [3H]hypoxanthine incorporation",NF54,72 h,7200 nM
